Experimental data gathered from unrelated publications.
Lines come from different studies, so protocols differ. ± marks the error that the study gave. Values after ≈ are worked out from the molar mass of the structure shown.

SMILES | organism | test | system | conditions | how to read | endpoint | result
CC1(C)C(C=C(Cl)Cl)C1C(=O)OCc1c(F)ccc(F)c1F (stereo not drawn) | Anopheles funestus | glazed tile contact bioassay | FANG susceptible | – | relative to: permethrin | potency relative to permethrin | ≤ 25 fold
[Cl-].[Cl-].[Mn+2].c1ccc(CN2CCNCCN(Cc3ccccc3)CCNCC2)cc1 | Leishmania donovani | – | THP-1-derived macrophages, intracellular amastigotes | – | – | IC50 | 1.02 µM
CC(=O)Oc1ccc(Cn2nc(C)c(=O)[nH]c2=O)cc1C1OC(c2cccc(Cl)c2)=NN1C(C)=O (stereo not drawn) | varicella-zoster virus | plaque formation, plaque reduction | HEL fibroblasts, TK+ strain OKA | – | – | EC50 | > 20 µM
CC[C@@H](C)[C@@H](NC(=O)[C@@H](C)NC(=O)[C@@H](CCCCN)NC(=O)[C@@H](CC(C)C)NC(=O)[C@@H](C)NC(=O)[C@H](NC(=O)[C@@H](Cc1c[nH]cn1)NC(=O)[C@@H](CC(C)C)NC(=O)[C@H](NC(=O)[C@H](NC(=O)[C@@H](CCCCN)NC(=O)[C@@H](CCCCN)NC(=O)[C@@H](C)NC(=O)[C@@H](CO)NC(=O)[C@@H](CCCCN)NC(=O)[C@@H](Cc1ccccc1)NC(=O)[C@H](NC(=O)[C@@H](CCCCN)NC(=O)[C@@H](CC(C)C)NC(=O)[C@@H](Cc1ccccc1)NC(=O)[C@@H](CO)NC(=O)[C@@H](CCCCN)NC(=O)[C@@H](Cc1c[nH]c2ccccc12)NC(=O)[C@@H](CCCCN)NC(C)=O)[C@H](C)O)[C@H](C)O)C(C)C)[C@H](C)O)C(=O)N[C@H](CO)C(=O)N[C@H](CO)C(N)=O | Rhizomucor | – | clinical isolate | 48 h, 30 °C | – | MIC50 | 4.7 µg/mL (≈ 1.57 µM)
Cc1nccc2c3ccccc3n(Cc3cccnc3)c12 | Echinococcus granulosus sensu stricto | – | protoscoleces | 48 h | – | LC50 | 57 ± 2 µM
COc1ccc(-c2oc3ccc(-c4cc(OC)c(OC)c(OC)c4)cc3c2C#CC2(O)CCCCC2)cc1 | hepatitis C virus | HCV replicon replication | HCV genotype 1b subgenomic replicon cells | 10 µM | relative to: DMSO | remaining activity | 106%
CC(=O)[O-].F[P-](F)(F)(F)(F)F.[Cu+2].c1ccc(CN2CCN3CCN(CC2)CCN(Cc2ccccc2)CC3)cc1 | Leishmania donovani | parasite growth, resazurin | – | 72 h, promastigote | – | IC50 | > 20 µM
CCn1c(-c2ccc(-c3ccc(F)cc3)cc2)c(-c2ccc(-c3ccc(F)cc3)cc2)n(CC)c1=[Se+][Au-][P+](CC)(CC)CC.[Cl-] | Acinetobacter baumannii | – | carbapenem-resistant | 10, 20, 40 µM, 2 h | relative to: untreated | glutathione content | decreased
CC(CCC(=O)[O-])C1CCC2C3CCC4CC(O)CCC4(C)C3CC(O)C12C.C[N+](C)(C)CC(O)CC(=O)O (stereo not drawn) | Staphylococcus epidermidis | – | TISTR 2172 | 1 mg per disc, 18 to 24 h, 37 °C, 6 mm disc | – | inhibition zone diameter | 12.3 ± 0.3 mm
S=C(NCc1ccccn1)NCc1ccccn1 | Agrobacterium tumefaciens | – | – | 20 µg/mL | – | inhibition zone diameter | 23 mm
[Cl-].[Cl-].[Mn+2].c1ccc(CN2CCCNCCN(Cc3ccccc3)CCCNCC2)cc1 | Leishmania donovani | – | THP-1-derived macrophages, intracellular amastigotes | – | – | IC50 | 12.4 µM
CC[C@H](C)[C@H](NC(=O)[C@H](CCCCN)NC(=O)[C@H](CCCCN)NC(=O)[C@H](CC(C)C)NC(=O)[C@H](CCCCN)NC(=O)[C@H](CCC(=O)O)NC(=O)[C@H](CCCCN)NC(=O)[C@@H](NC(=O)[C@H](CCCCN)NC(=O)[C@H](CC(N)=O)NC(=O)[C@H](CCCNC(=N)N)NC(=O)[C@H](Cc1ccccc1)NC(=O)[C@H](CCCCN)NC(=O)[C@H](CCCNC(=N)N)NC(=O)[C@H](CC(C)C)NC(=O)[C@H](CCCNC(=N)N)NC(=O)[C@H](CCCCN)NC(=O)[C@H](CCCNC(=N)N)NC(=O)[C@@H](N)CC(C)C)[C@@H](C)CC)C(=O)NCC(=O)N[C@@H](CCC(N)=O)C(=O)N[C@@H](CCCCN)C(=O)N[C@H](C(=O)N[C@@H](CCC(N)=O)C(=O)NCC(=O)N[C@@H](Cc1ccccc1)C(=O)N[C@H](C(=O)N1CCC[C@H]1C(=O)N[C@@H](CCCCN)C(=O)N[C@@H](CC(C)C)C(=O)O)C(C)C)[C@@H](C)CC | Stenotrophomonas maltophilia | inhibition zone | CGMCC 1.179 | LB agar, overnight | – | lethal concentration | 2.99 µM

A few entries again:
SMILES | organism | test | system | conditions | how to read | endpoint | result
CC(=O)[O-].F[P-](F)(F)(F)(F)F.[Cu+2].c1ccc(CN2CCN3CCN(CC2)CCN(Cc2ccccc2)CC3)cc1 | Leishmania donovani | parasite growth, resazurin | – | 72 h, promastigote | – | IC50 | > 20 µM
